Values quoted from earlier work that unrelated publications cite.
Protocols differ between the studies behind these lines. “And” joins repeats or separate records; there may be more than shown. ± marks the error that the study gave. Converted amounts (≈) assume the structure as drawn.
Chain of UniProt Q9UBF8 (whole entry, looked up): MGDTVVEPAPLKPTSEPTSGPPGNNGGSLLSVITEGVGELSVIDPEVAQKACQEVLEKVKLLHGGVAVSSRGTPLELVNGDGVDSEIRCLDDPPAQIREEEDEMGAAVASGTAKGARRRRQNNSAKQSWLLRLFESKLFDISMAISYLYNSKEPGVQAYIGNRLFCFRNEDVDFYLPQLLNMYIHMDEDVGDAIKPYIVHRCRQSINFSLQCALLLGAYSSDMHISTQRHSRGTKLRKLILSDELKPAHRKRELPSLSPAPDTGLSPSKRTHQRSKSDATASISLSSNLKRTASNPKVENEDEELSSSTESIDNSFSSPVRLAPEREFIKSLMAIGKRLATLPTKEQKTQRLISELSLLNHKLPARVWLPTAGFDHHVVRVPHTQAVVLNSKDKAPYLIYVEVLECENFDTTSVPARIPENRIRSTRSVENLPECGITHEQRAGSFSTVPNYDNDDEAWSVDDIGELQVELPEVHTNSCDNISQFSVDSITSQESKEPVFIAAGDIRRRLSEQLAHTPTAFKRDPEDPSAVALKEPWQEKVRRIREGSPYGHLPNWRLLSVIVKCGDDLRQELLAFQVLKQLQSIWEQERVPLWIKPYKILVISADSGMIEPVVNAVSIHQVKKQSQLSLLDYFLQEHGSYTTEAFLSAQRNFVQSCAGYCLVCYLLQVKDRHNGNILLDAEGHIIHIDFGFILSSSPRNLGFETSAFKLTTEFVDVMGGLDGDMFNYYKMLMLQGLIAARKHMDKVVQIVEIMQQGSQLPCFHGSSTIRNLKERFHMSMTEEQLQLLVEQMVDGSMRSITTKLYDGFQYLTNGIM

SMILES | tested on | test | test system | setting | how to read | quantity | value
C[N+]1(C)[C@@H]2C[C@@H](OC(=O)C(O)(c3cccs3)c3cccs3)C[C@H]1[C@@H]1O[C@@H]12 | – | – | COPD patients | inhaled, 36 µg once daily, 6 h postdose, dosing day 7 | baseline: baseline | placebo-corrected trough FEV1 change | 150 mL
OCc1cn(Cc2cccc(Cl)c2)c2ccccc12 | – | – | lung tumour model, lung tumour | concentration not given | – | p-STAT3 in lung tumours | decreased
Nc1ccn([C@@H]2CS[C@H](CO)O2)c(=O)n1 | – | – | chronic hepatitis B patients | dose not given, 48 months, with: entecavir | baseline: baseline | HBsAg reduction | 0.14 log10 IU/mL
CC1(C)CCC(CN2CCN(c3ccc(C(=O)NS(=O)(=O)c4ccc(NCC5CCOCC5)c([N+](=O)[O-])c4)c(Oc4cnc5[nH]ccc5c4)c3)CC2)=C(c2ccc(Cl)cc2)C1 | – | – | human, newly diagnosed AML | concentration not given, with: azacitidine | – | complete remission rate | 37%
CC(=O)O[C@@]12CO[C@@H]1C[C@H](O)[C@@]1(C)C(=O)[C@H](O)C3=C(C)[C@@H](OC(=O)[C@H](O)[C@@H](NC(=O)OC(C)(C)C)c4ccccc4)C[C@@](O)([C@@H](OC(=O)c4ccccc4)[C@H]21)C3(C)C | – | – | human gastric or GEJ adenocarcinoma | dose not given, trial | – | overall survival | 7.7 months
Cc1nn(C)cc1S(=O)(=O)NC(=O)c1ccc(-n2ccc(OCC(C)(C)C(F)(F)F)n2)nc1N1C[C@@H](C)CC1(C)C | – | clinical exposure-response, item: sweat chloride | human, cystic fibrosis | with: tezacaftor/ivacaftor | – | EC50 | 0.4 µg/mL (≈ 0.669 µM)
Cc1c(C(=O)Nc2ccc(N3C[C@@H](C)O[C@@H](C)C3)nc2)cccc1-c1ccc(OC(F)(F)F)cc1 | – | item: Gli1 mRNA, stromal | mouse | oral, 40 mg/kg, single dose | – | time to nadir | ~20 h
Cc1ccc(C)c(OCCCC(C)(C)C(=O)O)c1 | – | – | HIV-infected patients starting therapy, plasma | dose not given | – | triglyceride decrease | 44.2%
C=CCc1ccc(OC)c(OC)c1 | – | – | human, water | – | – | odour detection threshold | 820 µg/kg
Cc1nc(NC(=O)N2CCC[C@H]2C(N)=O)sc1-c1ccnc(C(C)(C)C(F)(F)F)c1 | – | – | MCF7, mouse, MCF7 orthotopic xenograft | 20 mg/kg once daily, day 62, single agent | – | %T/C | 38%
COC(=O)C1=C(C)NC(C)=C(C(=O)OC)C1c1c(Cl)nc2scc(C)n12 | – | calcium-induced contraction | guinea pig aortic strip | 50 µM, with: K+ 80 mM depolarisation | – | inhibition | 47 ± 1.1%
C[N+](C)(C)c1ccc2c(c1)C#Cc1ccc([N+](C)(C)C)cc1C#C2.O=C([O-])C(F)(F)F.O=C([O-])C(F)(F)F | – | UV spectroscopy | methanol | room temperature, with: benzyl azide | – | second-order rate constant | 0.171 M⁻¹ s⁻¹ and 0.176 M⁻¹ s⁻¹
Nc1cccc2c1C(=O)N(C1CCC(=O)NC1=O)C2=O (stereo not drawn) | – | – | relapsed refractory multiple myeloma patients | dose not given, trial | – | partial response rate | 13%
COc1nccnc1CC(C)C | – | – | human, water | – | – | odour detection threshold | 0.005 µg/kg
Cc1oncc1C(=O)Nc1ccc(C(F)(F)F)cc1 | – | mitochondrial membrane potential disruption, Tox21 HTS | – | – | – | AC50 | 10.1 µM
O=C(c1cccnc1-c1ccncc1)N1CCC(O)(Cc2ccccc2)CC1 | – | item: convulsive and drop seizures | children with Dravet or Lennox-Gastaut syndrome | dose not given, maintenance period, combined population | – | placebo-adjusted seizure frequency reduction | 30.5%
CNC[C@H](O)[C@@H](O)[C@H](O)[C@H](O)CO.O=C([O-])CN1CCN(CC(=O)[O-])CCN(CC(=O)O)CCN(CC(=O)[O-])CC1.[Gd+3] | – | – | human plasma | 310 K, 1.41 T | – | relaxivity r1 | 3.6 mM⁻¹ s⁻¹
CC1(C)S[C@@H]2[C@H](NC(=O)[C@H](N)c3ccccc3)C(=O)N2[C@H]1C(=O)O | Klebsiella oxytoca | – | clinical isolate RKI-No_609/16 | – | – | MIC | > 16 µg/mL
Nc1cc(C(F)(F)F)c(-c2nc(N3CCOCC3)nc(N3CCOCC3)n2)cn1 | PI4KB (Homo sapiens, UniProt Q9UBF8) | enzyme activity | – | 10 µM | baseline: untreated | remaining activity | 95%
C[N+]1(C)CCC(OC(=O)C(O)(c2ccccc2)C2CCCC2)C1 (stereo not drawn) | – | – | COPD patients | inhaled, 25 µg once daily, 24 h postdose, dosing day 7 | baseline: baseline | placebo-corrected trough FEV1 change | 89 mL
C[C@H]1COCCN1c1nc(-c2cnc(N)cc2C(F)F)nc(N2CCOCC2)n1 | COLO 205 | – | – | – | – | GI50 | 0.642 µM
Cc1cc(-c2nccc3c2ccn3CC(=O)Nc2ccc(-c3cnccn3)cn2)ccn1 | – | – | mouse, hepatic fibrosis model | 5 mg/kg once daily, days 14-32 | – | hepatic hydroxyproline content | decreased
COC[C@@H](c1ccc(C(F)(F)F)cc1)N1CCN(C2(C)CCN(C(=O)c3c(C)ncnc3C)CC2)C[C@@H]1C | – | – | human, HIV infected | dose not given, after short monotherapy, 14 days | – | duration of viral suppression | 2 to 3 days
CNC(C)C1CCC(N)C(OC2C(N)CC(N)C(OC3OCC(C)(O)C(NC)C3O)C2O)O1 (stereo not drawn) | Klebsiella oxytoca | – | clinical isolate RKI-No_609/16 | – | – | MIC | > 8 µg/mL

A few entries again:
SMILES | tested on | test | test system | setting | how to read | quantity | value
CC1(C)CCC(CN2CCN(c3ccc(C(=O)NS(=O)(=O)c4ccc(NCC5CCOCC5)c([N+](=O)[O-])c4)c(Oc4cnc5[nH]ccc5c4)c3)CC2)=C(c2ccc(Cl)cc2)C1 | – | – | human, newly diagnosed AML | concentration not given, with: azacitidine | – | complete remission rate | 37%
CNC(C)C1CCC(N)C(OC2C(N)CC(N)C(OC3OCC(C)(O)C(NC)C3O)C2O)O1 (stereo not drawn) | Klebsiella oxytoca | – | clinical isolate RKI-No_609/16 | – | – | MIC | > 8 µg/mL
